Measurements gathered from unrelated publications.
Numbered parts are unrelated; each lists some results of a single study. Changes are numbered by the printed parent chain.

Set 1
Target: Probable WRKY transcription factor 50, DNA-binding domain (WRKY50, Arabidopsis thaliana, UniProt Q8VWQ5, residues 99-173)
Method: DNA-protein interaction ELISA
Form: double-stranded DNA, one strand shown
Matrix: in vitro, bacterial lysate
Concentration: not given
Setting: whole dsDNA probe, crude lysate protein
Baseline: highest signal in screen
Reading: higher = stronger binding
Residues (chain): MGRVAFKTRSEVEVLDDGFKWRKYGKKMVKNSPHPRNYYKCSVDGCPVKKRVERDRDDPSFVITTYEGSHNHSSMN
| Sequence | relative absorbance |
| --- | --- |
| AAAAAATTAGCTTATCCTTGCTTGTGAAAA | 14.4 % of maximum |
| AAAAAAATTTTTAGTTTTAATTTTGGAAAA | 22.4 % of maximum |
| AAAAAAAACTCCCATACTACAACCGAAAAA | 20.4 % of maximum |
| AAAAAATGTTTTTTAGAGGTGTGCAAAAAA | 17.1 % of maximum |
| AAAAAATCGGGGATCCGGGCGGTTGCAAAA | 20.5 % of maximum |
| AAAAAAACTCTAGGTCAATATTATTCAAAA | 64.2 % of maximum |
| AAAAAAAGTATCAAAGCCTAGGGCTGAAAA | 10.5 % of maximum |
| AAAAAAATCAGCCTGACTCTGGGCGTAAAA | 49.1 % of maximum |
| AAAAAATCACAATACCTTCTCGTCATAAAA | 33.9 % of maximum |
| AAAAAAGCTCGTCTCCGCCTCCTGCTAAAA | 32.6 % of maximum |
| AAAAAAGTGTTAGATTGTAGTTGATAAAA | 19.5 % of maximum |
| AAAAAATACATTTGACTTTGGGTTTCAAAA | 81.9 % of maximum |
| AAAAAATTTGCTCTTTTGGTTTTCACAAAA | 16.1 % of maximum |
| AAAAAATCTTCACCTCACTTCGGTTTAAAA | 28.4 % of maximum |
| AAAAAAAAGCGTTACATCATATGGAAAAAA | 14.9 % of maximum |
| AAAAAAGGCCGTTGGACCTCGGTCTAAAAA | 17.9 % of maximum |
| AAAAAAATCACGGTTCGACCTCCAGCAAAA | 12.4 % of maximum |
| AAAAAATATCTGATCCAATTTAGGTCAAAA | 20.1 % of maximum |
| AAAAAATTCAGAGCTTCGAGGTTCCGAAAA | 14.6 % of maximum |
| AAAAAATCCTATCTTGGCTTTGGCCTAAAA | 39.8 % of maximum |
| AAAAAATTTGGTCTTCGTCCTCGCTTAAAA | 43.6 % of maximum |

Set 2
Target: CCNF, cyclin fold, Cln2 fusion (human)
Method: yeast growth competition, sequencing
Matrix: yeast
Setting: strong parent motif
Baseline: not given
Reading: higher = stronger binding
Starting sequence: CDKN1B docking peptide (human); PSACRNLFGPVDH
| Substitution | normalised enrichment score |
| --- | --- |
| PSACRNLFGVVDH [P10V] | 6.54 |
| PSACRNVFGPVDH [L7V] | 1.3 |
| PSACDNLFGPVDH [R5D] | -0.278 |
| PSACRNLFGPYDH [V11Y] | 6.71 |
| PSACRNLFGPVKH [D12K] | 6.94 |
| PSACRNLFGEVDH [P10E] | 6.72 |
| PSACRNLFGPVAH [D12A] | 7.76 |
| PSACRNLFGQVDH [P10Q] | 6.44 |
| PSACRNLFGPVDL [H13L] | 6.77 |
| PHACRNLFGPVDH [S2H] | 6.9 |
| PSNCRNLFGPVDH [A3N] | 0.687 |
| PSACRNLFGDVDH [P10D] | 6.78 |
| PSACRNLFGPTDH [V11T] | 6.71 |
| PSAWRNLFGPVDH [C4W] | 2.09 |
| PYACRNLFGPVDH [S2Y] | 5.81 |
| PSACRNYFGPVDH [L7Y] | 0.365 |
| PSACRNLMGPVDH [F8M] | 0.893 |
| PSACRNLCGPVDH [F8C] | -0.0717 |
| DSACRNLFGPVDH [P1D] | 3.4 |
| PSACRNLFGPVWH [D12W] | 7.68 |
| PSACRNLFGPVDN [H13N] | 6.92 |
| PSACRNLFGMVDH [P10M] | 7.08 |
| PSACRNLFGGVDH [P10G] | 7.3 |
| PSAARNLFGPVDH [C4A] | 6.16 |
| PSACRNLFCPVDH [G9C] | 3.16 |

Set 3
Target: ABI1, truncated, D143A, DHFR fusion (Arabidopsis thaliana)
Method: DHFR PCA, deep sequencing
Matrix: yeast
Setting: methotrexate growth selection, single substitutions
With: (+)-ABA 0.032 µM
Baseline: wild-type fitted maximum
Reading: higher = stronger binding
Starting sequence: PYL1, truncated, DHFR fusion (Arabidopsis thaliana); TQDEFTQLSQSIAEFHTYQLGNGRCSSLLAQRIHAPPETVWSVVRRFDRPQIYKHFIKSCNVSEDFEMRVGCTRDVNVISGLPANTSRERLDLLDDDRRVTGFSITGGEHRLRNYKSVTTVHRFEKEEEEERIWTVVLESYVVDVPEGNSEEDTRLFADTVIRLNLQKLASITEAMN
| Substitution | relative binding score |
| --- | --- |
| D96M | -0.2% |
| E128F | 13.1% |
| S171V | 12.3% |
| T173D | -4.71% |
| G71F | -2.14% |
| R163I | -13.9% |
| R24H | 7.29% |
| F47L | -2.92% |

Set 4
Target: Histone acetyltransferase KAT6A, winged helix 2, GST fusion (KAT6A, Homo sapiens, UniProt Q92794, residues 85-181)
Method: protein binding microarray
Form: double-stranded DNA, one strand shown
Matrix: in vitro
Concentration: not given
Setting: 8-mer, flanks averaged, mean of 2 arrays, mostly near background
Baseline: not given
Reading: higher = stronger binding
Residues (chain): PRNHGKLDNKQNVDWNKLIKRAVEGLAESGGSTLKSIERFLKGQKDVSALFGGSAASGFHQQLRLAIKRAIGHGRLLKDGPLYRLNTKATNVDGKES
| Sequence | E-score |
| --- | --- |
| CCCCGTAG | -0.00043 |
| ATCGGTAA | 0.0275 |
| TACAGAGA | -0.044 |
| CATATACC | -0.133 |
| AGTCTACA | -0.202 |
| GTAGCCTA | -0.118 |
| ATTGACCG | -0.0789 |
| CCACGATA | -0.00405 |
| GCCGTGTA | -0.13 |
| GAACAGCC | -0.0224 |
| CCGAGAAG | -0.0356 |
| GGCTAAAC | 0.0887 |
| CGAATTTC | 0.0353 |
| CGTTACTA | -0.163 |
| CCGGTAGC | -0.135 |
| CGTGGAGC | 0.098 |
| AAACGGTG | 0.0642 |
| ACTTGTTC | 0.146 |
| ACTTAGTG | -0.00468 |

For quick reference, copied from above (set 1):
| Sequence | relative absorbance |
| --- | --- |
| AAAAAATCGGGGATCCGGGCGGTTGCAAAA | 20.5 % of maximum |
| AAAAAAATTTTTAGTTTTAATTTTGGAAAA | 22.4 % of maximum |
| AAAAAAACTCTAGGTCAATATTATTCAAAA | 64.2 % of maximum |
| AAAAAAGTGTTAGATTGTAGTTGATAAAA | 19.5 % of maximum |
| AAAAAATGTTTTTTAGAGGTGTGCAAAAAA | 17.1 % of maximum |
| AAAAAATTTGGTCTTCGTCCTCGCTTAAAA | 43.6 % of maximum |
